Experimental data from different studies.
Protocols differ between the studies behind these lines. Values joined by “and” are separate records of one study, mostly repeats; a detail may differ. ± gives the spread as reported.

CC(C)[C@H](NC(=O)CNC(=O)[C@H](CCC(N)=O)NC(=O)[C@H](C)N)C(=O)O  subjects with severe adverse events (human; intravenous infusion, 15 mg/kg/h, 2 h infusion): 0%
[2H]C([2H])([2H])C([2H])([2H])C([2H])([2H])OC(C(=O)OC1CCNCC1)(c1ccccc1)c1ccccc1  adverse events (measured: otitis media; healthy Japanese male; oral, 12 mg once daily, 16 days): 14.3%
COc1cc2c3c(c4cc(OC)c(OC)c(OC)c4c2cc1OC)CC1CCCN1C3 (stereo not shown)  CC50 (swine cells; 24 (unit not given)): 83.8 ± 3.29 µM
CC[C@@H]1C[C@]1(NC(=O)[C@@H]1C[C@@]2(CN1C(=O)[C@@H](NC(=O)[C@@H](NC(=O)[C@@H]1CCCCN1C(C)C)C1CCCCC1)C(C)(C)C)C(C)(C)C21CCC1)C(=O)NS(=O)(=O)N1CCCC1  terminal half-life (human, plasma; oral, 50 mg): ~180 min
CCCCCCCCCCCCC(=O)O.O=C1CCCC2C3CCCN4CCCC(CN12)C34 (stereo not shown)  critical aggregation concentration (water; concentration not given, 308.15 K): 0.00099 mol/kg
CN(C)CCN(Cc1ccccc1)C(=O)c1cc(-c2ccc(F)cc2)n2nc(C(C)(C)C)cc2n1  MTD (general toxicity; CD-1 mouse; intravenous, single dose): 100 mg/kg
CCO[C@H]1[C@H](O)[C@@H](N)[C@@H](O[C@H]2[C@H](O[C@@H]3O[C@H](CO)[C@@H](O[C@H]4O[C@@H](CN)[C@@H](O)[C@H](O)[C@H]4N)[C@H]3O)[C@@H](O)[C@H](N)C[C@@H]2N)O[C@@H]1CO  tolerability (guinea pig; chronic ototoxicity study): not toxic
CC(C)C[C@@H](NC(=O)[C@@H](Cc1ccccc1)NC(=O)[C@H](N)Cc1ccccc1)C(=O)N[C@H](CCCCN)C(=O)N1CCC(N)(C(=O)O)CC1  AUC(0-t) (human, plasma; intravenous, 15 µg/kg): 246 ng·h/mL
CSCC[C@@H]1NC(=O)[C@@H]2CSSC[C@H](NC(=O)[C@H](CO)NC(=O)[C@H](C)N)C(=O)N[C@@H](CCCNC(=N)N)C(=O)N[C@@H]([C@@H](C)O)C(=O)N3CCC[C@H]3C(=O)N[C@@H](CCCCN)C(=O)N[C@@H](CC(=O)O)C(=O)N[C@H]3CSSC[C@H](NC(=O)[C@H](CCCCN)NC(=O)[C@H](CCCNC(=N)N)NC(=O)[C@H](CC(N)=O)NC1=O)C(=O)N[C@@H](CCCCN)C(=O)N[C@H]1CSSC[C@H](NC(=O)[C@@H]4CCCN4C(=O)[C@H](CC(=O)O)NC(=O)[C@H](C)NC3=O)C(=O)N[C@@H](C)C(=O)N[C@@H](CCCCN)C(=O)N[C@@H](CCC(=O)O)C(=O)N[C@@H]([C@@H](C)O)C(=O)NCC(=O)N[C@@H](CSSC[C@@H](C(N)=O)NC(=O)[C@H](CCCNC(=N)N)NC(=O)[C@H](CC(N)=O)NC1=O)C(=O)N1CCC[C@H]1C(=O)N[C@@H](Cc1ccc(O)cc1)C(=O)NCC(=O)N[C@@H](CCCCN)C(=O)N2  indirect bilirubin (DA rat, pristane-induced arthritis, serum; subcutaneous, single 0.1 mg/kg at onset, end of 21-day trial): 0.02 mg/dL
CCCC[C@H]1C(=O)N(C)[C@@H](CCCC)C(=O)N[C@@H](CCCNC(=O)CN2CCN(CC(=O)O)CCN(CC(=O)O)CCN(CC(=O)O)CC2)C(=O)N[C@H](C(=O)NCC(N)=O)CSCC(=O)N[C@@H](Cc2ccc(O)cc2)C(=O)N(C)[C@@H](C)C(=O)N[C@@H](CC(N)=O)C(=O)N2CCC[C@H]2C(=O)N[C@@H](Cc2c[nH]cn2)C(=O)N[C@@H](CC(C)C)C(=O)N(C)CC(=O)N[C@@H](Cc2c[nH]c3ccccc23)C(=O)N[C@@H](CO)C(=O)N[C@@H](Cc2c[nH]c3ccccc23)C(=O)N1C [gallium-68 labelled]  tissue-to-tissue ratio (NOD/SCID mice, CHO-hPD-L1 xenograft, tumour over muscle; iv, dose not given, 120 min; relative to: tumour over muscle): 18.9 ± 9.35
[11CH3]n1c(=O)n(CCCO)c(=O)c2c1nc(Oc1cccc(OC(F)(F)F)c1)n2Cc1ccc(Cl)cc1  tracer uptake (ex vivo biodistribution; Sprague Dawley rat, brain; 60 min post injection): 0.25 ± 0.03 %ID/g
CC[C@H](C)C(=O)N1CCC(NC(=O)Nc2ccc(OC(F)(F)F)c(F)c2)CC1  subjects with insomnia TEAE (healthy volunteers; oral, 2 mg single dose): 0%
COc1cc(NC(=O)C(=O)c2c(C)n(Cc3ccc(Cl)cc3)c3ccc(C)cc23)ccn1  AUC(0-inf) (male cynomolgus monkey, plasma; oral, 10 mg/kg): 3110 ng·h/mL
CC(C)C[C@@H](N)C(=O)NCC(=O)N[C@H](C)C(=O)N[C@H](CO)C(=O)N[C@H](Cc1c[nH]c2ccccc12)C(=O)N[C@H](Cc1c[nH]cn1)C(=O)N[C@H](CCCNC(=N)N)C(=O)N1CCC[C@@H]1C(=O)N[C@H](CC(=O)O)C(=O)N[C@H](CCCCN)C(=O)N[C@H](CS)C(=O)N[C@H](CS)C(=O)N[C@H](CC(C)C)C(=O)NCC(=O)N[C@H](Cc1ccc(O)cc1)C(=O)N[C@H](CCC(N)=O)C(=O)N[C@H](CCCCN)C(=O)N[C@H](CCCNC(=N)N)C(=O)N1CCC[C@@H]1C(=O)N[C@H](CC(C)C)C(=O)N1CCC[C@@H]1C(N)=O  accuracy (LC-MS/MS; rat plasma; 5000 ng/mL, -80 to 25 °C, 3 freeze-thaw cycles; relative to: nominal): 111%
CC(=CCC(O)C(C)=Cc1csc(C)n1)CC=CC(C)C(O)C(C)C(=O)C(C)(C)C(O)CC(=O)O (stereo not shown)  AUC (human, plasma; intravenous infusion, 15.0 mg/m2 KOS-1584, 3 h infusion, cycle 1): 226 ± 165 ng·h/mL
CC(C)C[C@H](NC(=O)[C@H](Cc1ccc(O)cc1)NC(=O)[C@H](Cc1c[nH]cn1)NC(=O)[C@H](CCCCN)NC(=O)[C@H](CC(C)C)NC(=O)[C@H](C)NC(=O)[C@H](CC(C)C)NC(=O)[C@H](CCCCN)NC(=O)CNC(=O)[C@@H](NC(=O)[C@@H](NC(=O)[C@H](CCCCN)NC(=O)[C@@H](NC(=O)[C@H](CCC(=O)O)NC(=O)[C@H](C)NC(=O)[C@H](CCCCN)NC(=O)[C@H](CCCCN)NC(=O)[C@H](CC(C)C)NC(=O)[C@H](CC(C)C)NC(=O)[C@@H](NC(=O)[C@H](CCCNC(=N)N)NC(=O)[C@H](Cc1c[nH]c2ccccc12)NC(=O)CN)[C@@H](C)O)C(C)C)[C@@H](C)O)C(C)C)C(N)=O  acute toxic concentration (zebrafish embryos; 1 h, 4, 28, 52 hpf): 25 µg/mL
CSCC[C@H](NC(=O)CNC(=O)[C@H](CCCCN)NC(=O)[C@H](CC(C)C)NC(=O)[C@@H]1CCCN1C(=O)[C@H](CO)NC(=O)[C@H](Cc1c[nH]cn1)NC(=O)[C@H](Cc1c[nH]c2ccccc12)NC(=O)[C@H](CCCNC(=N)N)NC(=O)[C@H](CC(C)C)NC(=O)[C@H](CCCNC(=N)N)NC(=O)[C@H](Cc1c[nH]c2ccccc12)NC(=O)[C@H](CS)NC(=O)CCCCCNC(=O)CN1CCN(CC(=O)O)CCN(CC(=O)O)CCN(CC(=O)O)CC1)C(=O)O [copper-64 labelled]  tumour uptake (BALB/c nude mice, Huh-7 xenograft, tumour; intravenous, 1.85 MBq, 1 h): 3.77 %ID/g
CC1=CC=c2ccc3c4c2[N]1[Re](=[C]=O)(=[C]=O)(=[C]=O)([C]#[N+]c1ccc(Cl)cc1)[N]4C(C)=CC=3.O=S(=O)([O-])C(F)(F)F  emission maximum (PBS, up to 1% DMSO; pH 7.4, air-equilibrated): 501 nm
COC(=O)C[C@](O)(CCCC(C)(C)OC(C)=O)C(=O)O[C@@H]1C(OC)=C[C@]23CCCN2CCc2cc4c(cc2[C@H]13)OCO4  concentration (CD1 mouse, plasma; oral, 1 mg/kg, 8 h): 10 ng/mL
C[C@H]1N=C(c2ccccc2F)c2cc(Br)ccc2-n2cnc(C(=O)OC3O[C@H](C(=O)O)[C@@H](O)[C@H](O)[C@H]3O)c21 (stereo partly shown)  cumulative excretion (LC-MS/MS; Swiss Webster mouse, female, urine; oral, 750 µg parent drug, 24 to 48 h): 0.6 ± 0.3%
CCNc1cc2[o+]c3cc(NCC)c(C)cc3c(-c3ccccc3C(=O)OCCOCC[18F])c2cc1C  tissue uptake ratio (rat; 120 min; relative to: heart over liver): 13.4 and 16.1
Cc1ccc(OCC(=O)N(Cc2cccs2)c2ccn[nH]2)cc1  fetal body weight (pregnant Crl:CD(SD) rat; oral, 125 mg/kg/day): 5.7 g

Repeated from above:
CC[C@H](C)C(=O)N1CCC(NC(=O)Nc2ccc(OC(F)(F)F)c(F)c2)CC1  subjects with insomnia TEAE (healthy volunteers; oral, 2 mg single dose): 0%
COc1cc(NC(=O)C(=O)c2c(C)n(Cc3ccc(Cl)cc3)c3ccc(C)cc23)ccn1  AUC(0-inf) (male cynomolgus monkey, plasma; oral, 10 mg/kg): 3110 ng·h/mL
CC(C)C[C@@H](N)C(=O)NCC(=O)N[C@H](C)C(=O)N[C@H](CO)C(=O)N[C@H](Cc1c[nH]c2ccccc12)C(=O)N[C@H](Cc1c[nH]cn1)C(=O)N[C@H](CCCNC(=N)N)C(=O)N1CCC[C@@H]1C(=O)N[C@H](CC(=O)O)C(=O)N[C@H](CCCCN)C(=O)N[C@H](CS)C(=O)N[C@H](CS)C(=O)N[C@H](CC(C)C)C(=O)NCC(=O)N[C@H](Cc1ccc(O)cc1)C(=O)N[C@H](CCC(N)=O)C(=O)N[C@H](CCCCN)C(=O)N[C@H](CCCNC(=N)N)C(=O)N1CCC[C@@H]1C(=O)N[C@H](CC(C)C)C(=O)N1CCC[C@@H]1C(N)=O  accuracy (LC-MS/MS; rat plasma; 5000 ng/mL, -80 to 25 °C, 3 freeze-thaw cycles; relative to: nominal): 111%
